{"data": "Measurements collected from several papers", "note": "A part holds a random share of what one study measured. Positions count from the first letter of the parent shown."}
{"data": "Set 1", "target": "ABI1, truncated, D143A, DHFR fusion (Arabidopsis thaliana, UniProt P49597)", "method": "DHFR PCA, dose-response", "matrix": "yeast", "notes": "Hill fit, mean, not affinity", "added": "(+)-ABA, dose series", "direction": "lower = more sensitive", "starting sequence": "PYL1, truncated, DHFR fusion (Arabidopsis thaliana, UniProt Q8VZS8); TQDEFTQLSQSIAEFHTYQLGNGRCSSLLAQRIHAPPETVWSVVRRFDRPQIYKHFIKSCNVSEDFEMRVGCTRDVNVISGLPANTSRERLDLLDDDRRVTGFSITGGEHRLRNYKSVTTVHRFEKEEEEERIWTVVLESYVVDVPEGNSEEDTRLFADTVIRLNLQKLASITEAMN"}
{"Substitution": "E14I", "ABA EC50 [µM]": 11.6}
{"Substitution": "L8V", "ABA EC50 [µM]": 9.93}
{"Substitution": "E109G", "ABA EC50 [µM]": 14.3}
{"Substitution": "S63A", "ABA EC50 [µM]": 2.72}
{"Substitution": "E127I", "ABA EC50 [µM]": 2.82}
{"Substitution": "L28H", "ABA EC50 [µM]": 129}
{"Substitution": "M68I", "ABA EC50 [µM]": 2.97}
{"Substitution": "M68P", "ABA EC50 [µM]": 5.79}
{"Substitution": "I12R", "ABA EC50 [µM]": 57.7}
{"Substitution": "E139S", "ABA EC50 [µM]": 13.8}
{"Substitution": "P36V", "ABA EC50 [µM]": 26.1}
{"Substitution": "E125N", "ABA EC50 [µM]": 2.27}
{"Substitution": "D65G", "ABA EC50 [µM]": 2.53}
{"Substitution": "Y18Q", "ABA EC50 [µM]": 9.17}
{"Substitution": "R113N", "ABA EC50 [µM]": 2.03}
{"Substitution": "F66Q", "ABA EC50 [µM]": 2.88}
{"Substitution": "R132E", "ABA EC50 [µM]": 0.765}
{"Substitution": "S26W", "ABA EC50 [µM]": 9.01}
{"Substitution": "D153N", "ABA EC50 [µM]": 63.3}
{"Substitution": "E131F", "ABA EC50 [µM]": 5.14}
{"Substitution": "D96L", "ABA EC50 [µM]": 218}
{"Substitution": "I162L", "ABA EC50 [µM]": 51.7}
{"Substitution": "D97R", "ABA EC50 [µM]": 3.02}
{"Substitution": "G102T", "ABA EC50 [µM]": 287}
{"data": "Set 2", "target": "RING finger protein unkempt homolog, zinc fingers 1-6, GST-SBP tag (UNK, Homo sapiens, UniProt Q9C0B0, residues 30-357)", "method": "RNA Bind-n-Seq", "form": "RNA", "matrix": "in vitro", "tested at": "not given", "notes": "RNA with constant flanks, human and mouse sites, ends assumed", "baseline": "input RNA pool", "direction": "higher = stronger binding", "UniProt Q9C0B0, sequence (30-357, looked up)": "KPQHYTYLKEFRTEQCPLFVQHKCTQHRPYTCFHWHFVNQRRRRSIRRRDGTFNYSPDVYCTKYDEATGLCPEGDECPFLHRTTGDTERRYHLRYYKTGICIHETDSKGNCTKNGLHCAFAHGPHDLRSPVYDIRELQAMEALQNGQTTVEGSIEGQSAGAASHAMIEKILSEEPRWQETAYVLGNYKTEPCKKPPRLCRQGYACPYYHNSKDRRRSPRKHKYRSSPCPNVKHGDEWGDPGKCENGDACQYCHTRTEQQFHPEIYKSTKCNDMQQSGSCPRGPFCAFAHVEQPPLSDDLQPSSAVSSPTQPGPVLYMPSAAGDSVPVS"}
{"Strand": "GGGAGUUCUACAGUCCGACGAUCCCAACAACAGUGACUAAAACAUUCAAGACAAGAAAAGCGUCUGCACAGGCCAGCCUGGCAUCUAAAGAUAAAACUCCCAAGUCAAAAAGUAAGAAGAGGAAUUCUACUCAGCUGAAAAGCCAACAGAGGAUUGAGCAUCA", "bound/input enrichment [ratio]": 0.333}
{"Strand": "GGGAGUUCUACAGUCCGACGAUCCACUAAAUGGCAGGCACUUGAAAAUGGGUGGAUUUCCCUUGUCGUUGUCUUUUCUAUUGAUAGUUGGGAUUUGGGAGAGAAGAAAGAGGUUUUCGAAACUGAAUCACUACUGAGUUGAACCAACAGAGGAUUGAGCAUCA", "bound/input enrichment [ratio]": 0.195}
{"Strand": "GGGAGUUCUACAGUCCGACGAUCUUUCCAUCUCAUGGAGACAGAGAAGAAAGUAUGAGAGAAGCUCUGUCUCCCGAUACCAGCGUUUCUGUCUUUACCUGGCAAGUGAAUAUAUAUGGACAGGGAAAGCCUUCUGUGUAUUUACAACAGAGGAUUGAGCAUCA", "bound/input enrichment [ratio]": 0.25}
{"Strand": "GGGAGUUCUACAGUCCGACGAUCACCACAGUUAUCCAAAAUGUAAAUAAAGCCCAAGUGAAGAUCAGAGCAAAGAAAGACAAUGUAGCAGGUGUUACCUUGCCAGUGUUUGAACAUUACCACGAAGGAACUGACAGCUAUGAACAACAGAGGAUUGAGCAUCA", "bound/input enrichment [ratio]": 0.204}
{"Strand": "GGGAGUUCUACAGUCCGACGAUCUGGAGGGGAAUCCUAUUAUUUGGGCCGCCUGGAACAGGAAAGUCCUACUUAGCCAAAGCUGUAGCAACAGAAGCCAACAACUCAACAUUUUUUUCAAUAUCUUCCUCUGAUCUUGUUUCUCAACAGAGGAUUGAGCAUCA", "bound/input enrichment [ratio]": 1.82}
{"Strand": "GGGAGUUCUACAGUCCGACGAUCAAGAACACACCGGUCAAAUCUUCAGAAGGAUCUCAGCAAAAGAGCCCAUCAUAUCCCAGUGACUCCACAACCAUGUUCACCAUAGAGGGCAUGCAUUGUAAAUCGUGUGUGUCCAAUAUUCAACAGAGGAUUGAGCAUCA", "bound/input enrichment [ratio]": 0.251}
{"Strand": "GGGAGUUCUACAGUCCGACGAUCAUCCACAGUCUGAUGGGCAACUUUGAAAAUGCUGUGGACUACUUCCACACAGCCCUUGGUCUUAGGCGAGAUGAUACAUUUUCUGUUACAAUGCUUGGUCAUUGCAUCGAAAUGUACAUUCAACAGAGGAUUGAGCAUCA", "bound/input enrichment [ratio]": 0.128}
{"Strand": "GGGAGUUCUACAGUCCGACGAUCCACAUAAUAACAUUCUUAAAUGAAAUCACUUCAAUAUGUUUCUCUGAAGUCUUUCUCUCUGUUUACCAGAGUUUAUCUAAGAACUUAUAUGACUUAAACAAUACAGUGUGUUACACUUUACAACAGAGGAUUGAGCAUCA", "bound/input enrichment [ratio]": 0.45}
{"data": "Set 3", "target": "CRIPT, C-terminal peptide", "method": "DHFR complementation, deep sequencing", "matrix": "yeast", "notes": "single substitutions, model-inferred values", "baseline": "wild type", "direction": "higher = weaker binding", "starting sequence": "ERBIN, PDZ domain 1 (human); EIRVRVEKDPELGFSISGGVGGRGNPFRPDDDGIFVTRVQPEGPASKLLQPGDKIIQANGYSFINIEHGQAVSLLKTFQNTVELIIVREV; partner TKNYKQTSV"}
{"Substitution": "P51K", "binding free energy change [kcal/mol]": 0.267}
{"Substitution": "T37I", "binding free energy change [kcal/mol]": 0.583}
{"Substitution": "P41C", "binding free energy change [kcal/mol]": 0.323}
{"Substitution": "D9G", "binding free energy change [kcal/mol]": -0.323}
{"Substitution": "Q79F", "binding free energy change [kcal/mol]": 0.0543}
{"Substitution": "S15T", "binding free energy change [kcal/mol]": -0.17}
{"Substitution": "I55A", "binding free energy change [kcal/mol]": 0.603}
{"Substitution": "L48T", "binding free energy change [kcal/mol]": 0.111}
{"Substitution": "Y61P", "binding free energy change [kcal/mol]": 0.783}
{"Substitution": "N59H", "binding free energy change [kcal/mol]": 0.323}
{"Substitution": "L12T", "binding free energy change [kcal/mol]": 1.47}
{"Substitution": "D31T", "binding free energy change [kcal/mol]": 0.726}
{"Substitution": "H68M", "binding free energy change [kcal/mol]": 0.982}
{"Substitution": "F63M", "binding free energy change [kcal/mol]": -0.0893}
{"Substitution": "G24P", "binding free energy change [kcal/mol]": 1.48}
{"Substitution": "I85R", "binding free energy change [kcal/mol]": -0.0253}
{"Substitution": "K8M", "binding free energy change [kcal/mol]": 1.55}
{"Substitution": "G22T", "binding free energy change [kcal/mol]": -0.204}
{"Substitution": "L49F", "binding free energy change [kcal/mol]": 0.148}
{"Substitution": "V39I", "binding free energy change [kcal/mol]": 0.22}
{"Substitution": "V6Y", "binding free energy change [kcal/mol]": 1.81}
{"Substitution": "G60M", "binding free energy change [kcal/mol]": 0.178}
{"Substitution": "S17N", "binding free energy change [kcal/mol]": 1.58}
{"Substitution": "R28E", "binding free energy change [kcal/mol]": -0.00626}
{"Substitution": "G52C", "binding free energy change [kcal/mol]": 0.365}
{"data": "Set 4", "target": "CCNB1, cyclin fold, Cln2 fusion (human)", "method": "yeast growth competition, sequencing", "matrix": "yeast", "notes": "strong parent motif", "baseline": "not given", "direction": "higher = stronger binding", "starting sequence": "CCP110 docking peptide (human); EKVKRRLDLDIDG"}
{"Substitution": "EKVKRRLDADIDG [L9A]", "normalised enrichment score": 0.11}
{"Substitution": "EKVARRLDLDIDG [K4A]", "normalised enrichment score": 1.88}
{"Substitution": "EKVKKRLDLDIDG [R5K]", "normalised enrichment score": 1.11}
{"Substitution": "EKVKRRLDLDADG [I11A]", "normalised enrichment score": 1.54}
{"Substitution": "EKVKRRADLDIDG [L7A]", "normalised enrichment score": -0.297}
{"Substitution": "EKVKARADLDIDG [R5A L7A]", "normalised enrichment score": 0.152}
{"Substitution": "EKVKRALDLDIDG [R6A]", "normalised enrichment score": 1.33}
{"Substitution": "EKVKKRLDFDIDG [R5K L9F]", "normalised enrichment score": 5.15}
{"Substitution": "AKVKRRLDLDIDG [E1A]", "normalised enrichment score": 1.6}
{"Substitution": "EKVKRRLDLDIAG [D12A]", "normalised enrichment score": 0.482}
{"data": "Further values, each from its own experiment"}
{"Molecule": "PhoQ, residues 284 288 289 292 302 303 NSMLDC", "target": "PhoP, residues 12 14 15 18 19 HEGLL (Escherichia coli, UniProt P23836)", "test": "Sort-seq, item: YFP reporter", "test system": "E. coli", "conditions": "PhoQ-PhoP variant library, added: 10 µM Mg2+", "scale": "baseline: high Mg2+ state, higher = stronger signaling", "endpoint": "fold induction", "result": 10.5}
